Results gathered from unrelated publications.
A part holds a random share of what one study measured. Changes are numbered by the printed parent chain.

Set 1
Target: CCNE1, cyclin fold, Cln2 fusion (human)
Method: yeast growth competition, sequencing
Matrix: yeast
Notes: strong parent motif
Relative to: not given
Direction: higher = stronger binding
Parent: GMNC docking peptide (human); KNAKRNLSSEFAN
Change	normalised enrichment score
A12G	1.26
L7F	0.321
L7W	0.11
R5Q	0.151
N2K	1.45
E10Q	0.86
N2I	0.431
N2D	1.09
E10A	0.548
A3Y	0.868
S8R	0.437

Set 2
Target: Sal-like protein 4, full length isoform A (SALL4, Homo sapiens, UniProt Q9UJQ4, residues 1-1053)
UniProt Q9UJQ4, sequence (whole entry, looked up): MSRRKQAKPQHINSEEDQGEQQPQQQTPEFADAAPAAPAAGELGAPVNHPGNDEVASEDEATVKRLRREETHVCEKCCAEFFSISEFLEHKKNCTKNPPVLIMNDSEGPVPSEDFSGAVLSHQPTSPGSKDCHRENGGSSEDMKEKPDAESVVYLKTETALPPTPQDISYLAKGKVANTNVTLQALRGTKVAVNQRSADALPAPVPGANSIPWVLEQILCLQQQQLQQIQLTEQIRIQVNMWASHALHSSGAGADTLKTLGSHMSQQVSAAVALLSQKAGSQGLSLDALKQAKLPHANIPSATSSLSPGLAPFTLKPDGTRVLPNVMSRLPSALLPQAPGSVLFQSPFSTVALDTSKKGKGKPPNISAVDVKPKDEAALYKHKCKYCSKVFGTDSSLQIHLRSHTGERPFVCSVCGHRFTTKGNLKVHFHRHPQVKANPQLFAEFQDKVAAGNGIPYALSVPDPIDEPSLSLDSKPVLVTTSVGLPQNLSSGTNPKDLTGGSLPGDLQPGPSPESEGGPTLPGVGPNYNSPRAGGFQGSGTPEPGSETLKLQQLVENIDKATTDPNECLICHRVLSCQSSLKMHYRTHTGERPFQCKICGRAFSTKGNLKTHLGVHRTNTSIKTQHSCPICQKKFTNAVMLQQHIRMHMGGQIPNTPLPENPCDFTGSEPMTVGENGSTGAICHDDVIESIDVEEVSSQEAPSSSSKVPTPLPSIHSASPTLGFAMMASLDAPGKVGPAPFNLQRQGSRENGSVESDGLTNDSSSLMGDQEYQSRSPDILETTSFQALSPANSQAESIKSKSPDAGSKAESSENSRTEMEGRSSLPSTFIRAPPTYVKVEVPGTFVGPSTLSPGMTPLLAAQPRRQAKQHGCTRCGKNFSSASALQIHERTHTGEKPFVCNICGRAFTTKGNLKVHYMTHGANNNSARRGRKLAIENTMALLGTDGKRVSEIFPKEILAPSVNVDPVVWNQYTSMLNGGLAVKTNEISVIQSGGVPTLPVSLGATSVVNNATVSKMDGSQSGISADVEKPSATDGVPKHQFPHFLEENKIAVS
Method: universal PBM
Molecule type: double-stranded DNA, one strand shown
Matrix: in vitro
Tested at: 600 nM
Notes: 8-mer, flanks averaged, mean of replicates
Direction: higher = stronger binding
Strand	E-score
CCCGTATA	0.0778
AAAACCAT	0.279
CCGGATCA	-0.186
CGAGTGGA	-0.0422
GAGATGAA	-0.0382
CGTAGCGC	-0.211
CTACTGGA	-0.21
CGTCGGCA	-0.243
CACTCTGC	-0.112
CATTCAAC	0.134
GCGCGGAC	-0.291
AACGCGGC	-0.222
CGGGGAAC	-0.225
GTCGTGTA	0.0447
ACAGCGCA	-0.182
TAGAGTCA	-0.106
GACTTGAA	0.0153
CCAGAGCG	-0.336

Set 3
Target: RNA binding protein fox-1 homolog 2, RRM domain, GST-SBP tag (RBFOX2, Homo sapiens, UniProt O43251-10, residues 100-194)
Method: RNA Bind-n-Seq
Molecule type: RNA
Matrix: in vitro
Tested at: 365 nM
Notes: natural RNA segment, single round, ends assumed
Relative to: no-protein control
Direction: higher = stronger binding
All sequences stand within: GGGAGUUCUACAGUCCGACGAUC … UGGAAUUCUCGGGUGCCAA
Residues (chain): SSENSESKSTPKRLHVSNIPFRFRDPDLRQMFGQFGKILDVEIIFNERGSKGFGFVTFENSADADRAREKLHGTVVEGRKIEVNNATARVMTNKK
Strand	RBNS enrichment (R)
ACAAAUUGUGGGGCCUUCAAAUUGUUUUUCUCUUUUCAUAUUAAAAAUGGUCUUUCUGUGAACUAGCUUCACAGGGUCAGUGUGGAUGUUUUCUCCCAAGUUAUGAACAC	0.566
GCGGCCCGUGCGCAGCCGCGCUCUGCCCCUCCGUCCCCAGGGUGCAGGCGCGCACCGCCCAACCCCCACCUCCCGGUGUAUGCAGUGGUGAUGCCUAAAGGAAUGUCACG	1.07
CACCUGAGAAAGAGCUGAUUUUGUAUUUCAGGUUUGAAAAGAAAUAACUGAACAUAUUUUUUAGGCAAGUCAGAAAGAGAACAUGGUCACCCAAAAGCAACUGUAACUCA	1.21
UCUUUGCUGUUUGUAGUAGAGACAUUUUGAAUGAAACUUGGCACUGCUUGAUUCAAAACUGUGGAAACCAGAUCUGUUUAGUCUCCUGUUUGUAUGCGUUUGCUAAUGGU	4.61
GCAGAAAUGGUUCUGCAAGAUGCUCAAAGGCAUGGAAGAAACAUAUUACUAUUUAUUGUUAAUAUCAUGGUCAUCUGAAGUUAAGUACUGGGAUAUAUUUUUCUAAUUUC	0.957
AGAAAUAGAGUAGACAGAAUCACACAUCAUGUGGUGGGCAGAUGGAAAUAAGUACCUGUGGUGAACAAGUUUCUACUGUAGUUGGAGAUCAUUAGAAUUGAAUUCAGUUU	0.941
CAGAAAAGAGCCGGAGCUCUAAUGCAGGCUGUGUGGCCGCCCUUGUCUUAGGCUCAUUUGUUCCUUACCAUUUUGUCGAGGUUUUUUGGGGGGUAGUGACAGAAUCCCUG	0.556
UUCCCCGUGGGCCUGGGUUACUUUACAUUGAAUAAACACUGUUUGACCCAGUGUUCUGACUUGUACCGGAAAUGUGGAUACUAGUCCAUUGAUGGCGCACACCUUUAAUC	0.288
GUACCUCUUAAGGGACUCUAAUAUAUGCUAACGCUGGUCCUCUUAGCUCUGUGCUCUCACCAGACAAUGAAUGAACUAUGAAAGAUUUAGUCAACAGAAACUAUUUUAGG	0.467
ACAGAGACGAAAAGGCUACCUCUCCUACCCAAGUUAAGUGUUCAAAGGGGAUGUGAGGGCCUCCACUGAAGCAGGGAGGCAGCUGUGUAAUCCUAUGUCAGCUCUCUUAG	0.659
UUAUACCUGGACAAUUUAGAUGUUUAUCAAAGGUCUUUUAUGGGGAAGAAAGCAAAUGUGUAAAACAGUAGACGUGUGACGUUUAUGAGUAAUGCUGGCUCUGAACAAAC	0.505
CCUCUGCAUCUGCUGAACUGAACAAACUAUCAGAGGAAAGGAAGUGGGACUGGCACUAUUUGAGGUUAAGACAAACUGCAUAUGUACUUCAAUUGCUUUGCACUUUUCCG	0.875

Other studies, line by line
Molecule	target	assay	test system	conditions	how to read	endpoint	result
PhoQ, residues 284 288 289 292 302 303 SLKLQV	PhoP, residues 12 14 15 18 19 LFHKL (Escherichia coli, UniProt P23836)	Sort-seq, measured: YFP reporter	E. coli	PhoQ-PhoP variant library, together with: 10 µM Mg2+	relative to: high Mg2+ state, higher = stronger signaling	fold induction	5.95

A few entries again (other studies, line by line):
Molecule	target	assay	test system	conditions	how to read	endpoint	result
PhoQ, residues 284 288 289 292 302 303 SLKLQV	PhoP, residues 12 14 15 18 19 LFHKL (Escherichia coli, UniProt P23836)	Sort-seq, measured: YFP reporter	E. coli	PhoQ-PhoP variant library, together with: 10 µM Mg2+	relative to: high Mg2+ state, higher = stronger signaling	fold induction	5.95
